Results collected from several papers.
A part holds a random share of what one study measured. Several values in a cell are separate wells, animals, samples, runs or records. Changes are numbered by the printed parent chain.

Sample 1 — route: subcutaneous; dose: 0.3 mg/kg/day DON equivalent; time: 5 days; reading: higher = more metabolite
SMILES: CC(=O)N[C@@H](Cc1c[nH]c2ccccc12)C(=O)N[C@@H](CCC(=O)C=[N+]=[N-])C(=O)OC(C)C
| method | refers to | cells | host | medium | metabolite peak area |
| --- | --- | --- | --- | --- | --- |
| UPLC-MS/MS metabolomics | GABA | EL4 | C57BL/6 CES1-/- mice, EL4 tumour | tumour | 2.71e+07 a.u. and 4.57e+07 a.u. and 3.04e+07 a.u. and 4.06e+07 a.u. and 5.11e+07 a.u. and 4.43e+07 a.u. |
| UPLC-MS/MS metabolomics | fructose 1,6-bisphosphate | EL4 | C57BL/6 CES1-/- mice, EL4 tumour | tumour | 1.24e+07 a.u. and 1.19e+07 a.u. and 1.02e+07 a.u. and 7.47e+06 a.u. and 9.45e+06 a.u. and 6.32e+06 a.u. |
| UPLC-MS/MS | urea |  | C57BL/6 CES1-/- mice | EL4 tumour | 1.3e+08 a.u. and 1.44e+08 a.u. and 1.04e+08 a.u. and 9.52e+07 a.u. and 1.1e+08 a.u. and 1.22e+08 a.u. |
| UPLC-MS/MS | dAMP 3' |  | C57BL/6 CES1-/- mice | EL4 tumour | 84600 a.u. and 251000 a.u. and 96100 a.u. and 111000 a.u. and 50400 a.u. and 150000 a.u. |
| UPLC-MS/MS metabolomics | dCMP | EL4 | C57BL/6 CES1-/- mice, EL4 tumour | tumour | 3.9e+06 a.u. and 3.38e+06 a.u. and 4.71e+06 a.u. and 6.34e+06 a.u. and 3.96e+06 a.u. and 3.69e+06 a.u. |
| UPLC-MS/MS metabolomics | erythritol | EL4 | C57BL/6 CES1-/- mice, EL4 tumour | tumour | 576000 a.u. and 425000 a.u. and 202000 a.u. and 608000 a.u. and 565000 a.u. and 157000 a.u. |
| UPLC-MS/MS | tricarballylate |  | C57BL/6 CES1-/- mice | EL4 tumour | 6.45e+07 a.u. and 4e+07 a.u. and 2.2e+07 a.u. and 4.32e+07 a.u. and 1.61e+07 a.u. and 1.21e+08 a.u. |
| UPLC-MS/MS | dGMP 3' |  | C57BL/6 CES1-/- mice | EL4 tumour | 381000 a.u. and 81800 a.u. and 675000 a.u. and 966000 a.u. and 269000 a.u. and 394000 a.u. |

Sample 2 — cell line: mouse MPNST tumor cells; method: high-content nuclear imaging; refers to: cell number; tested at: 10 µM; time: 12 h; notes: mean of 2 replicates; baseline: plate mean; reading: higher = more cells
| SMILES | nuclei count |
| --- | --- |
| Nc1ccc(-c2ccc3ncc4ccc(=O)n(-c5cccc(C(F)(F)F)c5)c4c3c2)cn1 | -4.42 z-score |
| COc1cc2c(cc1O)CC[C@@H]1[C@@H]2CC[C@]2(C)[C@@H](O)CC[C@@H]12 | -4.66 z-score |
| CC(C)C[C@@H](C(=O)N[C@@H](Cc1ccc(OCc2ccccc2)cc1)C(=O)NC(C)(C)C)N(C)Cc1ccc(C(C)(C)C)cc1 | 1.48 z-score |
| CCN(C(=O)CO)[C@H]1CN(/C(=N\C#N)Nc2cccc(OC(F)F)c2)N=C1c1ccc(Cl)c(Cl)c1 | 1.02 z-score |
| CC#C[C@]1(O)CC[C@H]2[C@@H]3CCC4=CC(=O)CCC4=C3[C@@H](c3ccc(N(C)C)cc3)C[C@@]21C | 4.34 z-score and 0.925 z-score and 6.61 z-score |
| Oc1cccc(-c2nc(N3CCOCC3)c3oc4ncccc4c3n2)c1 | -0.309 z-score |
| c1cc2c(cc1C1CCCCC1)c1c3n2CCNC3CCC1 (stereo not drawn) | -5.77 z-score |
| Cn1c(=O)c2nc[nH]c2n(C)c1=O | 0.38 z-score and 2.58 z-score |

Mixed results
P1: PafA, mature enzyme, eGFP fusion (Elizabethkingia meningoseptica, UniProt Q9KJX5); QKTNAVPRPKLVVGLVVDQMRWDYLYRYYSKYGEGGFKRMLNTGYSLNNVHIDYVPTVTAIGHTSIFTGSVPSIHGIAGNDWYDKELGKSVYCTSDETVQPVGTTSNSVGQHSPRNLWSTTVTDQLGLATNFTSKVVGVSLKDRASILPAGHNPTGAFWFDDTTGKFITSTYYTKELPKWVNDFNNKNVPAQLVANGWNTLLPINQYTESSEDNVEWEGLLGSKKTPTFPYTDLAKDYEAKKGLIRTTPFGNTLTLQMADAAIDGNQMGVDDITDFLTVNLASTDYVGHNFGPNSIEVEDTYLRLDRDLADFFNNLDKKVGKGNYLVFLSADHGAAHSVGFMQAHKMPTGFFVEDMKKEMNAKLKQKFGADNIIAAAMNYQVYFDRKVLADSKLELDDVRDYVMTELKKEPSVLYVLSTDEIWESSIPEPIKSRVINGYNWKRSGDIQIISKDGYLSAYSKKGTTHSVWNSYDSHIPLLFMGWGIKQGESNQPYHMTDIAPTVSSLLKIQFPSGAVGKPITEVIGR
| Substance | target | test | test system | conditions | scale | quantity | result |
| --- | --- | --- | --- | --- | --- | --- | --- |
| P1 T248V | vanadate, free oxyanion | microfluidic competitive inhibition | in vitro, cell-free expressed | not given, derived from inhibition constants, unchanged parent 676 nM | lower = stronger binding | oxyanion analog dissociation constant | 1.03 µM |
| Nc1cnc(N2CCc3cc(S(=O)(=O)Nc4c(F)cc(Cl)cc4F)cc(N4CCCC4=O)c32)nc1 | Calcium-dependent protein kinase 1 (CDPK1, Plasmodium falciparum, UniProt P62344) | cell-free assay, competition with immobilised ligand |  | 1 µM |  | remaining binding | 97% |

Excerpt of the above (sample 1):
| method | refers to | cells | host | medium | metabolite peak area |
| --- | --- | --- | --- | --- | --- |
| UPLC-MS/MS metabolomics | dCMP | EL4 | C57BL/6 CES1-/- mice, EL4 tumour | tumour | 3.9e+06 a.u. and 3.38e+06 a.u. and 4.71e+06 a.u. and 6.34e+06 a.u. and 3.96e+06 a.u. and 3.69e+06 a.u. |
